Measurements gathered from unrelated publications.
A part holds a random share of what one study measured.

Sample 1
Target: Protein max, full length (MAX, Homo sapiens, UniProt P61244-2, residues 1-151)
Technique: protein-binding microarray
Form: double-stranded DNA, one strand shown
Sample: in vitro
Tested at: not given
Setting: k-mer, scored over probes, only values ≥0.25
Direction: higher = stronger binding
Sequence	E-score
ACATGGTA	0.339
CACGCGTC	0.444
CTGCACGC	0.395
TCCACGCA	0.264
AGCGTGGG	0.437
ACGCGCTC	0.251
ACGTGGCG	0.451
TCACGCGA	0.377
AAGCACGA	0.335
CGTGGGAG	0.307
CGTGTGGC	0.351
CATGTGAG	0.457
CATGTTCG	0.283
ACAGGTGG	0.403
CAGCGTGA	0.428
CCACCTGC	0.419
ACACCGTG	0.317
CATGCGAG	0.337
ACACGCGC	0.439
CTCGTGTC	0.42
CACACATG	0.447
CTGAGCAC	0.263
GCACACAC	0.264
ACGCTGCA	0.28
AACGTGGA	0.425

Sample 2
Substance: PhoQ, residues 284 288 289 292 302 303 ALASRC
Technique: Sort-seq
Refers to: YFP reporter
Sample: E. coli
Setting: PhoQ-PhoP variant library
Added: 10 µM Mg2+
Reference: high Mg2+ state
Direction: higher = stronger signaling
target	fold induction
PhoP, residues 12 14 15 18 19 GMGLL (Escherichia coli, UniProt P23836)	1.79
PhoP, residues 12 14 15 18 19 LFHKL (Escherichia coli, UniProt P23836)	7.24
PhoP, residues 12 14 15 18 19 QQAYL (Escherichia coli, UniProt P23836)	9.73

Sample 3
Target: RNA binding protein fox-1 homolog 2, RRM domain, GST-SBP tag (RBFOX2, Homo sapiens, UniProt O43251-10, residues 100-194)
Technique: RNA Bind-n-Seq
Form: RNA
Sample: in vitro
Tested at: 365 nM
Setting: natural RNA segment, single round, ends assumed
Reference: no-protein control
Direction: higher = stronger binding
Construct (chain): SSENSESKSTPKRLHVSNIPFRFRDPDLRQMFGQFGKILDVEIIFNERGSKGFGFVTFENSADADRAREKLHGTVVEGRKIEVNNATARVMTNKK
Sequence	RBNS enrichment (R)
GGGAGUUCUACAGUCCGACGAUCCUCAGCCUCCCUCCCAGGGCUCCAGAGCUCAGCUCUUCCUUUUCUAGAAGCAUGUGAAGAUGCCCAAGAGCCUGGAGACAUUGCCAUCCUUCCUACAGAAACUGUUUCUCUGGAAUUCUCGGGUGCCAA	1.36
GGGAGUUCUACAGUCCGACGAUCAGCACGAGGCCUCAGGUCGGCCCUGUGGCGGGUAGGCAGGAAGGACUGUCCCAGACGAGGGGCUUCCUCUAGAGUCUCACUGCUGGGGAGGAGAGGACUGGGCCUGAUGGUGGAAUUCUCGGGUGCCAA	0.7
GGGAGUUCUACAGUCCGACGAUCUCUCUAAAGAACCUUAACUAAUGCAUCAUAAGAAUUCUCCUUUCUUUGUCUUAUGGUAUUUUUUAGGUCAUUUCUCUUCUAUAUCAGGCUCUUGUUAAUUAGUCUUUUUUUGGAAUUCUCGGGUGCCAA	1.13
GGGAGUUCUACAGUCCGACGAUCGUUACACCACUCCUUCGUCCUUACAGGAGAUGUAGGGAGAAGAAUCUGCAGGCUGCUUGUAGGACUGUUCACCAAGGGGGAUACCAGCAGCAAGAGAGUGCACCCGUUUAUGGAAUUCUCGGGUGCCAA	0.636
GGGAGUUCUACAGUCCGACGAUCACUCUUAUGUGUUGUUCUUUCAGCCCAUGCUCCAGGUCACCGGUUUUUAGGUAAACAUGACAUGACAUGUACUUGUAAUAUCAGUGAAAGGGGCUUUUAGUCGUCUCAGUUGGAAUUCUCGGGUGCCAA	0.221
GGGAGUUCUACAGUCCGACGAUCAUAAACAAAUUGUUCAAUUUUAGGAAUUCCCCGUUACCUCCACAGUCAGUUGUGAGGGCCUGAUUAGACUCUGGAGCAUGGUGUACGACUCUUCUCCAAGAGCGCAUGCAUGGAAUUCUCGGGUGCCAA	2.1
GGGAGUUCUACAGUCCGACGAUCGGCCAAGGAAUCCCGCAAUGUCACUAUGGAAACAGAUGAAUGGUUUGACAUGAAGACGACUGUUCCGUUAUUGGGAAGUAAUCAGCUUUUGAAACUGAGAGUGUUGGGAAUGGAAUUCUCGGGUGCCAA	7.02
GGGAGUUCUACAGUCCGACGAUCAAGCCUUUCUACUUGUGGGUGCAAUAGAUUCCUUCUUUUUCCUUUGCAGUGUCAUCUUGAUUGUAUAUUGAAAAUACUGUGUAAUGAUGAAAUCAUAUUAUAAAUAUUUCUGGAAUUCUCGGGUGCCAA	0.572
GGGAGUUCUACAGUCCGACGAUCGAAGUGUGACACCAAGCAGGAGAGGAAGAAUGAUUUUCUUUGUACUUAGGUUUUCUAAGGACAUUGUUUUAAUCUGUAUCGUGCCAAAGUUGUAUCACUGUUAAACUUCUUGGAAUUCUCGGGUGCCAA	0.62
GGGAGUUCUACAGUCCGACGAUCCAUUAGUCUCCAUAAUUGGUCUCGCUGGACACGUGCACAGCUGUGGCUCUCAGCAGCUUCCCUGCAGCGCCACUGGGCUAAGGGGGAGCGGCCAUUUAUGUUCAUGUUCAUGGAAUUCUCGGGUGCCAA	0.405
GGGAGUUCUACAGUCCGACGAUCUUUCUCUUUGUCAUUAAAGUCAAAUGUCUAUCUGGCUCACCACAAAGUGUUCUUUGAUUUUGGCUUUGAGGCUGCCAUUUCUGGAAUAAGGGGGGAUGGGAAACAGCUGAUGGAAUUCUCGGGUGCCAA	0.32
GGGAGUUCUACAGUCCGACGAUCUUCUUAACAAGCCACUCUGUCCCAUAACAUGCACUUGGAAUCUCUCCUAAGUUCCAGAGGCCCCACUGUUCCAGUUUCAAGCCUUCAUUUUGGAGUCUGUUUGGGAACUUUGGAAUUCUCGGGUGCCAA	0.376

Sample 4
Target: Centromere-binding protein 1, full length, His-tagged (CBF1, Saccharomyces cerevisiae, UniProt P17106, residues 1-351)
UniProt P17106, sequence (whole entry, looked up): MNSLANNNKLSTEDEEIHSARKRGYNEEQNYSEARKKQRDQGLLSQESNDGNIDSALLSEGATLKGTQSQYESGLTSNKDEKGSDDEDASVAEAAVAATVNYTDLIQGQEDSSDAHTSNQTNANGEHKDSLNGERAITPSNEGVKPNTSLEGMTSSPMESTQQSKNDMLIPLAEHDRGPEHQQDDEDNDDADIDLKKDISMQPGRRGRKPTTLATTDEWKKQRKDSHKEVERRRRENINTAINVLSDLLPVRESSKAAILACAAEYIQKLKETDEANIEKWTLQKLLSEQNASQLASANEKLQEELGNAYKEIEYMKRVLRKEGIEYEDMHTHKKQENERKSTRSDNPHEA
Technique: competition protein-binding microarray
Form: double-stranded DNA, one strand shown
Sample: in vitro
Tested at: 2 µM
Setting: whole 60-bp probe, lowest competitor level
Added: Pho4 competitor, 0.05 µM
Direction: higher = stronger binding
Sequence	fluorescence intensity
TGCGCAACAACTTGGTACGTGGGTGTATGTCTAGAAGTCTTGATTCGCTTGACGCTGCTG	61.1 a.u.
CATGTTATCTAGCATCACCTGCCCATCATTTATCTGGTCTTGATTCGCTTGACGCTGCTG	296 a.u.
AAATCGGAGGTTTCACACGTAATTACATAAAGAAGAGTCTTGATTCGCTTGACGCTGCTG	69.5 a.u.
CTAGCGCCATTTCACCACATGCTTGAATAATACAGTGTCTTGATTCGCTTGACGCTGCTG	154 a.u.
CAGTCAAAAGAACAGCATCGATGTCCAATGGGTCTAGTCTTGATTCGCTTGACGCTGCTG	61.9 a.u.
AAAGATTTGCCTTTGCCCGTGCCGAAAGCAGGCTGTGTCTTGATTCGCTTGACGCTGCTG	67.5 a.u.
ATCTAGCTCTGCACACATGTGACGGAACGAAGCATCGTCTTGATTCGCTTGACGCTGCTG	443 a.u.
GCCGCCAGGGCCTGGCGCGTGGCCGCCGCTCCTCTTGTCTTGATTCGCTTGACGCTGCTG	44.8 a.u.
ATGGGCCACTCTTTTCACGTGAAGCGCTCCAGGAAAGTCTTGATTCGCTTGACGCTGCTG	514 a.u.
GCGCGAGAACATTACGACGCGCCTTCCCGTTAAATTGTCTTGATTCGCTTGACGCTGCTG	56.6 a.u.
GTCTTGTCTCATTGTCACCTAACTTTCCCCACTTCAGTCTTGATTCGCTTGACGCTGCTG	94.7 a.u.
CGCGCGCGGCCGGGCCATGTGAAGATTTTAACGGGCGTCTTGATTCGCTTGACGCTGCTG	89.2 a.u.
CGTCCTAGTGATTTTCACGTGCATTCCATGAGGAAGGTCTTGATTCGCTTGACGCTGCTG	1320 a.u.
GTCTTGTCTCATTGGAAGGTGGGTGTCCCCACTTCAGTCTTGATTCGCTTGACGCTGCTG	73.3 a.u.
CACTTAAGCCTTGGCAACGTGTTGAACCAAGTCGACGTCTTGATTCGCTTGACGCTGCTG	83.7 a.u.
CTTCTGTAAATTTGCAATGTGGGTGGACGCGCCCCGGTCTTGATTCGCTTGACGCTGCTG	79.2 a.u.
TGACATTGCCACCATCACGTTGTCAAACTTTGCCGGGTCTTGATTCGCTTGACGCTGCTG	308 a.u.
CTTTCCCGATCTTGTCACCACACTTTAGCACATTTGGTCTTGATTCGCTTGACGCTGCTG	83.6 a.u.
GATTGCTCTCAAAATCTCGTGGGTACCCGTCGTTGAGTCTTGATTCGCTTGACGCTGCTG	77.6 a.u.
CCTCGGCGCTCCAACCACGTGCTGTTTATTACTCTGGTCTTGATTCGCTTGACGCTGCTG	1860 a.u.

Sample 5
Target: Histone acetyltransferase KAT6A, both winged helices, GST fusion (KAT6A, Homo sapiens, UniProt Q92794, residues 1-181)
Technique: protein binding microarray
Form: double-stranded DNA, one strand shown
Sample: in vitro
Tested at: not given
Setting: 8-mer, flanks averaged, mean of 2 arrays, mostly near background
Reference: not given
Direction: higher = stronger binding
Construct (chain): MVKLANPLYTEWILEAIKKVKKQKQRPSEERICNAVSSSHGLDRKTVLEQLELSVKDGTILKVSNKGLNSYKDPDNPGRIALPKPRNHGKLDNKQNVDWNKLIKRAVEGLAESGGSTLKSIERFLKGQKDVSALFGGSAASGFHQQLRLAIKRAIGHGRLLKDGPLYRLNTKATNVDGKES
Sequence	E-score
AAGTCTAC	-0.198
CTGCTATA	-0.0699
TATGAATA	-0.0396
CAAGCAGA	-0.0798
CCCAGTCA	-0.191
CCACCTGC	-0.129
ATAGGCGG	0.217
TCGGGTCA	0.2
CCGAGGAC	0.052
CACCCCGC	0.248
AGGAGGTG	-0.187
AACCTAGA	0.0102
ATTGTTAG	-0.0572
TAGCGAAA	0.0507
GGAGCTAA	-0.16
AATCTTGC	-0.0888
TTGGTAAA	-0.0131
ATGACCGC	0.203

A few entries again (sample 4):
Sequence	fluorescence intensity
ATCTAGCTCTGCACACATGTGACGGAACGAAGCATCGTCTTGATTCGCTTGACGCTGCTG	443 a.u.
GCCGCCAGGGCCTGGCGCGTGGCCGCCGCTCCTCTTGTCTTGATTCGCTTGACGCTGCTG	44.8 a.u.
ATGGGCCACTCTTTTCACGTGAAGCGCTCCAGGAAAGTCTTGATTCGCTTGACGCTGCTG	514 a.u.
GCGCGAGAACATTACGACGCGCCTTCCCGTTAAATTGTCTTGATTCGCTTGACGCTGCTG	56.6 a.u.
